Published values from different studies.
Protocols differ between the studies behind these lines. ± marks the error that the study gave.

SMILES	assay	test system	setting	IC50
Cl.[2H]C([2H])([2H])CC(=O)c1cnc(NC(=O)C2CC2)cc1Nc1cccc(-c2ncn(C([2H])([2H])[2H])n2)c1OC	IFNα-induced STAT phosphorylation	human whole blood	–	0.048 µg/mL
CN1CC[C@@H](COc2cnc(C#N)cc2-c2ccn3nc(NC(=O)C4CC4)cc3c2)C1	TNF release	human whole blood	with: LPS	0.73 µM
O=C(COC(=O)c1ccccc1Nc1cccc(C(F)(F)F)c1)Nc1cccc(C(F)(F)F)c1	nitric oxide scavenging, Griess	–	30 min, 25 °C, with: sodium nitroprusside 5 mM	477 ± 18 µM
CCOC(=O)C1=C(CSC2=NCCS2)NC(=O)NC1c1ccc(C)cc1 (stereo not shown)	nitric oxide scavenging	–	–	144 µM
O=[N+]([O-])c1ccc2c(c1)C=[N+]1N3C(=[O+][Cu-2]1([Cl])[O]2)c1ccccc1NC3c1cc([N+](=O)[O-])ccc1O (stereo not shown)	photosynthetic electron transport	Spinacia oleracea chloroplasts	–	531 µM
CO[C@H]1CCN(Cc2c(C)cc(C)c3[nH]ccc23)[C@H](CO)C1	MAC formation, inhibitor, measured: MAC deposition	human whole blood 50%	with: zymosan	24 ± 1 µM
COc1cc([C@H](O)[C@H](O)CO)ccc1O	DPPH radical scavenging	–	–	24.2 ± 0.69 µg/mL
CC(C)c1ccc(N(C)c2ccc3c(c2)OCC[C@H]3CNc2cnccc2C(=O)O)cc1	organoid viability	colorectal carcinoma organoid	patient-derived organoid model	0.149 µM
CCOC(=O)C1=C(CSC2=NCCS2)NC(=O)NC1c1ccccc1 (stereo not shown)	nitric oxide scavenging	–	–	247 µM
O=C1c2ccccc2NC(c2ccc(O)c(O)c2)N1/N=C/c1ccc(O)c(O)c1 (stereo not shown)	photosynthetic electron transport	Spinacia oleracea chloroplasts	–	857 µM

Some of these lines once more:
SMILES	assay	test system	setting	IC50
O=C(COC(=O)c1ccccc1Nc1cccc(C(F)(F)F)c1)Nc1cccc(C(F)(F)F)c1	nitric oxide scavenging, Griess	–	30 min, 25 °C, with: sodium nitroprusside 5 mM	477 ± 18 µM
CCOC(=O)C1=C(CSC2=NCCS2)NC(=O)NC1c1ccccc1 (stereo not shown)	nitric oxide scavenging	–	–	247 µM
